Published values from different studies.
Numbered parts are unrelated; each lists some results of a single study.

Set 1 — technique: RNA Bind-n-Seq; molecule type: RNA; sample: in vitro; concentration: not given; reference: input RNA pool; reading: higher = stronger binding
Target: RING finger protein unkempt homolog, zinc fingers 1-6, GST-SBP tag (UNK, Homo sapiens, UniProt Q9C0B0, residues 30-357)
Notes: RNA with constant flanks, human-mouse chimeric sites, ends assumed
Construct (chain): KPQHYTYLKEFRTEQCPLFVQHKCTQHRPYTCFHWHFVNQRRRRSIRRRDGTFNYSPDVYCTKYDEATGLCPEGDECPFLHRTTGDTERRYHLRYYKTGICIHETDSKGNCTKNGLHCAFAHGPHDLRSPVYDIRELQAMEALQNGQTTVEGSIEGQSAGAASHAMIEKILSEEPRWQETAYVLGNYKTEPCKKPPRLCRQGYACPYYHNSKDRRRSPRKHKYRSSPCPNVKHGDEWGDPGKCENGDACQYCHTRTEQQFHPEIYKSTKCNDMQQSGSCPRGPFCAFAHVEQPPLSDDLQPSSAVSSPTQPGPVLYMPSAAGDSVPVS
The bound/input enrichment of `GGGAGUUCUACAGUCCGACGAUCCGCUGGCGUUGAACUGUGGACUCUGAUGGCCUCCAUCUCUCAGGCACGUGUGCCUUCUCUUAGUCCCUGUUUUCGGGAUGUUAUGAAUCUCAGUACUGUGGUUUGAAAGCAGUUAUGUUGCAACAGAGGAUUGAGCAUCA` is reported as 0.243 ratio.
For `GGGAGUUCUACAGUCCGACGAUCGAUGAUAAUCACACAAAUGUGGCACUUUUACAUGACCAGCCUUGGGAUUCUUUUCCUGAUUAAUAUUCUCCCUGGAACCACUGGUCAAGGGGAAUCAAGACGACAAGAACCCGGGGACUUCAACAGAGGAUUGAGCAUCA`, the bound/input enrichment was 0.16 ratio.
`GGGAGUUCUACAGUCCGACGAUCAAGCAACGCAAACUUGAAACAAUUCGUUAUCUUGCAGCCUCAGUGUUCACUUGCUUGGCGAUAGCAUUGGGGUUUUAUAGGUUCUGGGGAAGUAGUAGACGAUGAUGCUGCCGCUGCUGCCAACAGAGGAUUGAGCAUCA` gave a bound/input enrichment of 0.747 ratio.
`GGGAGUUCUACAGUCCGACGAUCUACUACUGAAUCUGUGAUAUUGGCAAUUAUUAUUAUGGCCAGGGUCAUCCCAUGAAGCCUCAUAGAAUCCGGAUGACCCAUAACUUGCUGCUAAAUUAUGGUUUAUACCGAAAAAUGGAACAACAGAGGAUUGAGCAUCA` gave a bound/input enrichment of 0.38 ratio.
For `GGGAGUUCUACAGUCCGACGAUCGUUGCCAGCUUCCGGUUGGCCUCCAUCCGGUUCUCUCCUGAGCUACGUGUCUCUACGCUCUCAAUCCGCCAUCCAACAAACAUGGAUCAGGUAAUGCAGUUUGUGGAUGAGCCAAGUCAGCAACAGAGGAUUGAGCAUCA`, the bound/input enrichment was 0.0629 ratio.
With `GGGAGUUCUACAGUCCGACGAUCUACUCAACUUUCUUGCCACAUUUUGAAUUCCAAGAUGUUAUUCCUCCAGAUGACUUCCUAACGAGUGAUGAAGAAGUAGAUUUGGUUUUAUUUGGAACUAUGAGAGGACAAGUUGUUGGACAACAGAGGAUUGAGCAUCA` the bound/input enrichment was 0.225 ratio.
For `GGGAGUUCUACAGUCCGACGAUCACAGUUAUACACUGUUGUUUCAUUUUCAUAUAUUCUUGUAGUGUCUGCUUGCCUGUGACUUCUGGUAAAAUAAAAUAAGCCUUUGAAUUAGCAUGCUCAUGGUAUUUAACAUUUUCUAAACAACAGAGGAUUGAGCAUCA`, the bound/input enrichment was 1.15 ratio.
`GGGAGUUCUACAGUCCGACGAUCCUGGCCUGGCCCUCCCCAGGGGCCUCCUUUCGUAUAGUCACUGCUUCUGCUACGGAUACUUUCAGCUGCAACUCCCUACUGGGUGGGGCACCCAUUUCAGGCAGAAGGUUUUGGUACCCUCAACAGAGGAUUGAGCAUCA` gave a bound/input enrichment of 0.229 ratio.
For `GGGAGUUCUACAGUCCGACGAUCAGAUUCCCCCUCCUGAGGCCUUCUCCAAAGUUGGAGUCUCUUACAGAUGCCUCAUCCCCUGUUAGCGUUUUAGUUUGGACCACCCAGCCUUGGACAAUUCCCGCCAAUGAAGCUGUUUGCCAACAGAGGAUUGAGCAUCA`, the bound/input enrichment was 2.55 ratio.
`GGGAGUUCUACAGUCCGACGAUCUUGCUACUGACUCCCUGGGUCAAGUUCCUGUGGGAAUCAUACAGGCAGUGUUUGGACCUUCUUCGAAACAAUUCUAGAGUAGAGCGCCUUUACCAUGAUAUUGCCCAGCAAGCUUUCAAACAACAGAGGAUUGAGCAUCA` gave a bound/input enrichment of 0.179 ratio.

Set 2 — technique: protein binding microarray; molecule type: double-stranded DNA, one strand shown; sample: in vitro; concentration: not given; reference: not given; reading: higher = stronger binding
Target: Histone acetyltransferase KAT6A, both winged helices, GST fusion (KAT6A, Homo sapiens, UniProt Q92794, residues 1-181)
Notes: 8-mer, flanks averaged, mean of 2 arrays, mostly near background
Construct (chain): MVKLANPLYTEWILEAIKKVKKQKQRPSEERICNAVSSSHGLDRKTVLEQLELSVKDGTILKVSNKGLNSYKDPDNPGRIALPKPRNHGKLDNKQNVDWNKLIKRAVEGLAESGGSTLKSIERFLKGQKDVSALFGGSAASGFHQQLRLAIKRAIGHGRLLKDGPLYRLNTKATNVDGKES
For `AGACGTAA`, the E-score was -0.234.
`AAGGTCGG` has an E-score of 0.105.
`ATGTGGAC` has an E-score of -0.0176.
With `ACCGTTCA` the E-score was 0.0655.
`ATTCACTG` has an E-score of -0.119.
The E-score of `CTAAGTTC` is reported as -0.176.
The E-score of `AATAATAT` is reported as -0.0088.
`AACAGCAA` gave an E-score of -0.195.
The E-score of `GCTCGGCA` is reported as 0.139.
For `CCGCCTAG`, the E-score was 0.107.
With `CAAAGTTC` the E-score was -0.129.
`CCCCTCGA` gave an E-score of -0.185.
For `ATGACCGA`, the E-score was 0.00785.
`ACGTTGCC` has an E-score of 0.0737.
`ACCGTCGA` gave an E-score of 0.0741.

Set 3 — technique: RNA Bind-n-Seq; molecule type: RNA; sample: in vitro; concentration: 365 nM; reference: no-protein control; reading: higher = stronger binding
Target: RNA binding protein fox-1 homolog 2, RRM domain, GST-SBP tag (RBFOX2, Homo sapiens, UniProt O43251-10, residues 100-194)
Notes: natural RNA segment, single round, ends assumed
Construct (chain): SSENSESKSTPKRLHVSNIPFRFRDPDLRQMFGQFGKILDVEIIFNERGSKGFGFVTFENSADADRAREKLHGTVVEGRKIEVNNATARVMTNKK
Under “RBNS enrichment (R)”, `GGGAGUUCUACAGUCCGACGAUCUCAUUUUUGUAAGAUAGAUUGUAAUAGAUGCUGUUUAUACUAAACAUGUCAUAACUAUCUAUACAGUAUAUAUUAAAAGAAAGCUUGUACUGUAUCUUAUUUGAUGAUAUUGGAAUUCUCGGGUGCCAA` is recorded as 0.475.
`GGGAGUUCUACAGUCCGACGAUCCAUUUGCUGAGGAUGGAGAGGCAGGGGAGGGAGGCGGGAGGCCGUCACUGGAGUGGCGUCUGCAGCAGCUGCUGCCCCAGCACCCGCUCAGCCUGUCCUGGCUGCUCACCUGGAAUUCUCGGGUGCCAA`: “RBNS enrichment (R)” 0.397.
`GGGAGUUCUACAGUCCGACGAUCGUGAUGGUUUAAAUCAAUUAAGUGGCAUUGGAAACCUAGGGUUUCCUUUUGAUUAAGAGCCUUUUUUGUUUCUGCUCUUUGUCAGCUUUCAGGGGAGAAGGAGGCCACUGUGGAAUUCUCGGGUGCCAA`: “RBNS enrichment (R)” 0.792.
`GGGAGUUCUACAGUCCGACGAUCAAGGCUAACUUCUUUUCACUGUUGUGACCCUUUGCAAAAUGUAUGUUACAAUAGAUAGUGUCAUGUUGCAGGUUCAACGUUAUUUACAUGUAAAUAGACAAAAGGAAACAUGGAAUUCUCGGGUGCCAA`: “RBNS enrichment (R)” 0.472.
`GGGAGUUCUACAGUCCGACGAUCUUUAAUGAUCUCACCCCUGAGUUUCUUUUUCAUUAAAGUAGCUUUCAUUUCUAUUAUUCCAAUUUACUGAUAUGAACAAAUAGAAGGUCCGUGUGAGCAGACGCUCAGAAUGGAAUUCUCGGGUGCCAA` — result for “RBNS enrichment (R)”: 0.3.
`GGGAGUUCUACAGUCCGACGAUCUCUUUCAUAUAUAUUUUCACUUCCUAAUUCUAGUGUACAUAUCCCUGUAUAUCAUGGUAUCUGUGGGCAUAUGUCUGUUUCUUAUAAAGACACAUAUUUGUGUGUGUAUGUGGAAUUCUCGGGUGCCAA` — result for “RBNS enrichment (R)”: 0.439.
`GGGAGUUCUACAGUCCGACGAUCCACCCCGUGCCUCCUGCCUCCGCGCAGCCUGCAGCGGGAGACCCUGUCCCCGCCCCAGCCGUCCUCCUGGGGUGGACCCUAGUUUAAUAAAGAUUCACCAAGUUUCACGCUGGAAUUCUCGGGUGCCAA`: “RBNS enrichment (R)” 0.277.
Under “RBNS enrichment (R)”, `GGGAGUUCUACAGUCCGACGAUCAAAGCAAAAACAAAAGGAGGUAUUAAGUCCAGUUUCCAGGCUACUUGCUGUGUACAUCAAGAAAAUUCAGUUGAAUUCUGAGAUUAGCAUGGUUAUUAGCACUUUAUGCUUGGAAUUCUCGGGUGCCAA` is recorded as 0.707.
Under “RBNS enrichment (R)”, `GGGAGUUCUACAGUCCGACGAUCAUGAUGCUCCCCUUAAUUGUCACACUGAAAUUAUGUAGUAAAUCAGAAAAUACCUGAAAAGCAACUUUAUUGCUUCAAUCUGGAUAUAAGUAGUUAUUUAUAAAUAGUUAUGGAAUUCUCGGGUGCCAA` is recorded as 0.423.
`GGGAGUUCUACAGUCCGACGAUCUCUCCCUCUCAACCAUCCCACUAAGUUAUAGCCAAGAAGGGAAGGAGACACGGGGAUUUGGGGUUCUCUGCUUGAAUGUCUUCUCCUUUACCACCUCACCUUGUUGGUACUGGAAUUCUCGGGUGCCAA`: “RBNS enrichment (R)” 1.12.
Under “RBNS enrichment (R)”, `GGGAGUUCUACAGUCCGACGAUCAGCAUCCCCAUCGCAGCUGUAAGAAUUGAGCUGCAGAAGGUACCCUCUGUCGGGAUUGUAUCUCGACAUCCCUGUCGCGUUUUUCUUAGCUGGAGUGUGUGCUGCCUUUCUGGAAUUCUCGGGUGCCAA` is recorded as 0.522.
`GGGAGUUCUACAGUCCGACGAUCGGUCAAGUUACACGUGAAUUUGUUUUGUGAAGAAGGGAAGCUGGGGCAGGUAACACGCAGAGCCGCCACGUGGAACGGUCUGUCCGCCGGUCUGUCCCGCUUGCCGGGCUUGGAAUUCUCGGGUGCCAA` — result for “RBNS enrichment (R)”: 0.421.

Set 4 — technique: protein-binding microarray; molecule type: double-stranded DNA, one strand shown; sample: in vitro; concentration: 250 nM; notes: 60-bp whole probe; together with: salmon DNA 0.4 mg/ml; reference: random background probes; reading: higher = stronger binding; all sequences stand within: GCCTAGCAC … GTCTTGATTCGCTTGACGCTGCTG
Target: Interferon regulatory factor 7, full length, phosphomimetic (IRF7, Homo sapiens, UniProt Q92985, residues 1-503, S101K/S471D/S472D/S475D/S476D/S477D/S483D/S484D/S487D)
Sequence of UniProt Q92985 (whole entry, unmodified, looked up): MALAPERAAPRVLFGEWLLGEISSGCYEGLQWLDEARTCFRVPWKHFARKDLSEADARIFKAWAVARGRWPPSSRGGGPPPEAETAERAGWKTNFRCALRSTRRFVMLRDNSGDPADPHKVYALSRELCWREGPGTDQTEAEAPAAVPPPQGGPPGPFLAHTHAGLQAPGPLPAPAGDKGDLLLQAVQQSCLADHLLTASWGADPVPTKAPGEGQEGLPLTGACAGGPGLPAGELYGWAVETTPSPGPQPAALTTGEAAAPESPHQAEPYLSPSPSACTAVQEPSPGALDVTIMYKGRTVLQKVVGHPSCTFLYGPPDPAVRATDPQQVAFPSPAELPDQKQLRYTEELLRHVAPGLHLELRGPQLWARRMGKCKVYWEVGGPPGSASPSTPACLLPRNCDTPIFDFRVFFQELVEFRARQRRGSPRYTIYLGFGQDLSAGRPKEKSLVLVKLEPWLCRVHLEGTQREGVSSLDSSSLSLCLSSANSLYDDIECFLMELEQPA
`TTAGGTCTCCCTCTCCTTTAGTGCTAG` has a log fluorescence of -0.269 z-score.
`TCAAAAAATGGAAATCTAACTGTGCTA` gave a log fluorescence of 0.182 z-score.
`TTAGGTTCCCGTTTCGGTTAGTGCTAG` has a log fluorescence of 6.42 z-score.
`TTAGGTTACGGGACTGGGTTAGTGCTA` has a log fluorescence of 0.0852 z-score.
For `GTCTCTTGTTCTCTCTGGCCGTGCTAG`, the log fluorescence was 1.67 z-score.
`GACGATTTCAGTTCCGAAACGTGCTAG` has a log fluorescence of 0.865 z-score.
`GACGATCCCAGTATCGAGACGTGCTAG` has a log fluorescence of 0.406 z-score.
`TCATTTCTATGTCTGTTACTGTGCTAG` has a log fluorescence of 1.63 z-score.
For `TCATGTCAACTTTCTCTGACTGTGCTA`, the log fluorescence was 0.233 z-score.
`GACGGTTTCCTTCTCCCGACGTGCTAG` gave a log fluorescence of 2.96 z-score.
`TAAGTTTCACTTTCCAAAGCGTGCTAG` has a log fluorescence of 11.3 z-score.
With `TGCTGTCTCAGAGTCCTCTGGTGCTAG` the log fluorescence was -0.395 z-score.

A few entries again (set 4):
`TTAGGTTACGGGACTGGGTTAGTGCTA` has a log fluorescence of 0.0852 z-score.
For `GTCTCTTGTTCTCTCTGGCCGTGCTAG`, the log fluorescence was 1.67 z-score.
`GACGATTTCAGTTCCGAAACGTGCTAG` has a log fluorescence of 0.865 z-score.
`GACGATCCCAGTATCGAGACGTGCTAG` has a log fluorescence of 0.406 z-score.
`TCATTTCTATGTCTGTTACTGTGCTAG` has a log fluorescence of 1.63 z-score.
For `TCATGTCAACTTTCTCTGACTGTGCTA`, the log fluorescence was 0.233 z-score.
`GACGGTTTCCTTCTCCCGACGTGCTAG` gave a log fluorescence of 2.96 z-score.
`TAAGTTTCACTTTCCAAAGCGTGCTAG` has a log fluorescence of 11.3 z-score.
